Measured values of several laboratories.
Each numbered part is a random draw from the data of one study; scales do not carry over between parts. Changes are numbered by the printed parent chain.

Sample 1 — target: vanadate, free oxyanion; method: microfluidic competitive inhibition; sample: in vitro, cell-free expressed; concentration: not given; reading: lower = stronger binding
Setting: derived from inhibition constants, unchanged parent 676 nM
Starting sequence: PafA, mature enzyme, eGFP fusion (Elizabethkingia meningoseptica, UniProt Q9KJX5); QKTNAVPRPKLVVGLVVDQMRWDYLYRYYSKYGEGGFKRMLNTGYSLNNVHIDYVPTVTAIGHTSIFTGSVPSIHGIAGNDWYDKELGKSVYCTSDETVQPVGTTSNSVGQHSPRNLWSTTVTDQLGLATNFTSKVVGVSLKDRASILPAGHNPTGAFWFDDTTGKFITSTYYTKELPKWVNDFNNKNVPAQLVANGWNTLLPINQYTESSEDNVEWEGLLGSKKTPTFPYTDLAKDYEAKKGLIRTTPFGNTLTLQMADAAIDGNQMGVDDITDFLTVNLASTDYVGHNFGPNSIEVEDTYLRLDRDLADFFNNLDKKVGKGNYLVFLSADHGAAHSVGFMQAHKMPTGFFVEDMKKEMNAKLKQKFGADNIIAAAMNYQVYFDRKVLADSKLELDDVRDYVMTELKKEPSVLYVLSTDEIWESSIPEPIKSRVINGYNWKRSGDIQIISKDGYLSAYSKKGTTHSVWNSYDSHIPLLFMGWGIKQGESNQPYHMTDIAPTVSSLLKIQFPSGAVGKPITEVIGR
| Change | oxyanion analog dissociation constant |
| --- | --- |
| N107V | 755 nM |
| R115G | 892 nM |
| H337V | 714 nM |
| A235G | 973 nM |
| Y439G | 3040 nM |
| K187G | 642 nM |
| K175G | 1340 nM |
| F250V | 1030 nM |

Sample 2 — target: CCNA1, cyclin fold, Cln2 fusion (human); method: yeast growth competition, sequencing; sample: yeast; setting: strong parent motif; relative to: not given; reading: higher = stronger binding; starting sequence: viral docking peptide; YKVKRRLVFGADD
| Change | normalised enrichment score |
| --- | --- |
| YKVKRRLVFGADA [D13A] | 0.218 |
| YKVKRRLVFGALD [D12L] | 1.02 |
| YKVKTRLVFGADD [R5T] | 0.218 |
| YKVKLRLVFGADD [R5L] | -0.384 |
| YKVKRRLVFGEDD [A11E] | 1.43 |
| YYVKRRLVFGADD [K2Y] | 0.925 |
| YKVKRRLVFGAED [D12E] | 1.08 |
| YKVIRRLVFGADD [K4I] | -0.711 |

Sample 3 — read-out: binding; method: phage display NGS; molecule type: peptide; concentration: concentration not given; relative to: input library
Target: UDP-N-acetylglucosamine--peptide N-acetylglucosaminyltransferase 110 kDa subunit (OGT, Homo sapiens, UniProt O15294)
Chain of UniProt O15294 (whole entry, looked up): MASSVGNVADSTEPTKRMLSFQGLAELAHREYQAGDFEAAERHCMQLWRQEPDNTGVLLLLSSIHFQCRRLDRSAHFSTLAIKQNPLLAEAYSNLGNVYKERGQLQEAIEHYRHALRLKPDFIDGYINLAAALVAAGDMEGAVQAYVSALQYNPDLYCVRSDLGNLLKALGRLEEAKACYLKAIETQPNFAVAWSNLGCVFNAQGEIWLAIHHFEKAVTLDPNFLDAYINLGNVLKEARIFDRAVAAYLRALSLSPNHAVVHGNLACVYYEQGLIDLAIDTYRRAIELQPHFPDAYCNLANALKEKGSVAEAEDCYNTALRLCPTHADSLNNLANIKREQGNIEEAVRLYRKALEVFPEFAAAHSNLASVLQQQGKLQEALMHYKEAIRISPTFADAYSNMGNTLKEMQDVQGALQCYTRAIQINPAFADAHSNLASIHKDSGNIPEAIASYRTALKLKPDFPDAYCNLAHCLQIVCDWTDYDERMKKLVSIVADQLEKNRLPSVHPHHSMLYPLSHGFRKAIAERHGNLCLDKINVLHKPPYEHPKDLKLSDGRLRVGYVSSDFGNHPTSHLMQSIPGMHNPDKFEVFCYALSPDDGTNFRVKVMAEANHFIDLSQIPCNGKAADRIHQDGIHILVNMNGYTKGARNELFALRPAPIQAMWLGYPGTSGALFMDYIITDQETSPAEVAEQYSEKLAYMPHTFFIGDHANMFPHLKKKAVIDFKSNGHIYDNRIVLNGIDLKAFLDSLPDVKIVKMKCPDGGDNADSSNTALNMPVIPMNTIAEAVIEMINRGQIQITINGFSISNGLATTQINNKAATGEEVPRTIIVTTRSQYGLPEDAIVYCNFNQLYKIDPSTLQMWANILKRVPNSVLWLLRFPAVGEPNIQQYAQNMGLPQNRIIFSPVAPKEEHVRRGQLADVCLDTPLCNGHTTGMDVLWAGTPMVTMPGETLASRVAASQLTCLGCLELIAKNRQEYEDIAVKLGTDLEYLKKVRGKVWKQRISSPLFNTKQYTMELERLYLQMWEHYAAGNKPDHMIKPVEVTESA
| Molecule | enrichment fold change |
| --- | --- |
| HLQTVHSHSYYLRS | 2.31 |
| HDHQHESWFVHIPH | 10.6 |
| QRYGHTHMDHFSTSI | 3.25 |
| HKTWHPHHMVQTPN | 4.49 |
| HQIEWHHTSSNYFH | 4.02 |
| VTSENHPHVYMYYHV | 3.39 |
| QFWPMVTHNAHITGG | 3.04 |
| HNFFEYHTANRHQHF | 9.7 |

Other studies, line by line
| Compound | cell line | concentration | time | relative to | quantity | result |
| --- | --- | --- | --- | --- | --- | --- |
| CC(=O)N(O)CCCCCNC(=O)CCC(=O)N(O)CCCCCNC(=O)CCC(=O)N(O)CCCCCN | HEK-293T/ACE2 | concentration not given | 16 (unit not given) | vehicle | viability | 100% |

For quick reference, copied from above (sample 3):
| Molecule | enrichment fold change |
| --- | --- |
| QRYGHTHMDHFSTSI | 3.25 |
